Measured values collected from several papers.
Lines come from different studies, so protocols differ. Several values in a cell are separate wells, animals, samples, runs or records. Numbers after ± are the reported error. Values after ≈ are worked out from the molar mass of the structure shown.
rep main protease: Replicase polyprotein 1ab, main protease (rep, Severe acute respiratory syndrome coronavirus 2, UniProt P0DTD1)
OPRD1: Delta-type opioid receptor (OPRD1, Homo sapiens, UniProt P41143)
Sequence of UniProt P41143 (whole entry, looked up): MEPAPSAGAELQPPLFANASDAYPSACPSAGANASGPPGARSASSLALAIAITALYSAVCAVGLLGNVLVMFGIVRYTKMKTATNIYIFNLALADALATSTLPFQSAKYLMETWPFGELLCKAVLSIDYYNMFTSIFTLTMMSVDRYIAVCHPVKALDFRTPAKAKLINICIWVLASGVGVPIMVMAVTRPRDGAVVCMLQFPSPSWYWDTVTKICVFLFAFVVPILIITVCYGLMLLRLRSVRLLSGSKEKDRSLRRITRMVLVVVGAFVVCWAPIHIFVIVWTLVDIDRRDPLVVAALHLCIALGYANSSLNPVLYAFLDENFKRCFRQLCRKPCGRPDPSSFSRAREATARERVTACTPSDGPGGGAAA
rep papain-like protease: Replicase polyprotein 1ab, papain-like protease (rep, Severe acute respiratory syndrome coronavirus 2, UniProt P0DTD1)

CCCCCCCCCCCCCCCC(=O)N[C@@H](CCC(=O)NCCOCCOCCC(=O)NCCOCCOCCC(=O)NCCCC[C@H](NC(=O)[C@H](CC(=O)O)NC(=O)[C@H](CC(C)C)NC(=O)[C@H](Cc1ccc(O)cc1)NC(=O)[C@H](CCCCN)NC(=O)[C@H](CO)NC(=O)[C@H](Cc1ccc(O)cc1)NC(=O)[C@H](CC(=O)O)NC(=O)[C@H](CO)NC(=O)[C@@H](NC(=O)[C@H](Cc1ccccc1)NC(=O)[C@@H](NC(=O)CNC(=O)[C@H](CCC(N)=O)NC(=O)[C@@H](CO)NC(=O)[C@@H](N)Cc1c[nH]cn1)[C@@H](C)O)[C@@H](C)O)C(=O)N[C@@H](CCCNC(=N)N)C(=O)N[C@@H](CCCNC(=N)N)C(=O)N[C@@H](C)C(=O)N[C@@H](CCC(N)=O)C(=O)N[C@@H](CC(=O)O)C(=O)N[C@@H](Cc1ccccc1)C(=O)N[C@H](C(=O)N[C@@H](CCC(N)=O)C(=O)N[C@@H](Cc1c[nH]c2ccccc12)C(=O)N[C@@H](CC(C)C)C(=O)N[C@@H](CC(C)C)C(=O)N[C@@H](CC(N)=O)C(=O)N[C@H](C(=O)NCC(=O)NCC(=O)N1CCC[C@H]1C(=O)N[C@@H](CO)C(=O)N[C@@H](CO)C(=O)NCC(=O)N[C@@H](C)C(=O)N1CCC[C@H]1C(=O)N1CCC[C@H]1C(=O)N1CCC[C@H]1C(=O)N[C@@H](CO)C(N)=O)[C@@H](C)O)C(C)C)C(=O)O
serum enzyme activity (item: ALT; rhesus monkey, female; subcutaneous, 60 µg/kg once daily, 28 days): 56.9 ± 23.8 U/L

Cc1oc2nc1C(=O)N[C@](C)(C(=O)OC(C)C)c1nc(c(C)o1)C(=O)N[C@](C)(C(=O)OC(C)C)c1nc(c(C)o1)C(=O)N[C@]2(C)C(=O)OC(C)C
IC50 (rep main protease; enzyme activity, inhibitor): 2.6 µM and 2.58 µM

CC[C@H](C)[C@H](NC(=O)[C@H](CCCCN)NC(=O)[C@H](CCCCN)NC(=O)[C@H](CC(C)C)NC(=O)[C@H](Cc1c[nH]c2ccccc12)NC(=O)CN)C(=O)NCC(=O)N[C@@H](CCCCN)C(=O)N[C@@H](CCCCN)C(=O)N[C@H](C(=O)N[C@@H](CCC(=O)O)C(=O)N[C@@H](CCCNC(=N)N)C(=O)N[C@H](C(=O)NCC(=O)N[C@@H](CCC(N)=O)C(=O)N[C@@H](Cc1c[nH]cn1)C(=O)N[C@H](C(=O)N[C@@H](CCCNC(=N)N)C(=O)N[C@@H](CC(=O)O)C(=O)N[C@@H](C)C(=O)N[C@H](C(=O)N[C@H](C(=O)N[C@@H](CCC(N)=O)C(=O)N[C@H](C(=O)N[C@H](C(=O)NCC(=O)N[C@H](C(=O)N[C@@H](C)C(=O)N[C@@H](CCC(N)=O)C(=O)N[C@@H](CCC(N)=O)C(=O)N[C@@H](C)C(=O)N[C@@H](C)C(=O)N[C@@H](CC(N)=O)C(=O)N[C@H](C(=O)N[C@@H](C)C(=O)N[C@@H](C)C(=O)N[C@H](C(=O)N[C@@H](CC(C)C)C(=O)N[C@@H](CCCCN)C(N)=O)[C@@H](C)O)C(C)C)C(C)C)[C@@H](C)CC)[C@@H](C)O)[C@@H](C)CC)[C@@H](C)O)[C@@H](C)O)C(C)C)[C@@H](C)CC
MIC (Acinetobacter baumannii; broth microdilution; RKI 19/09, CAMHB with 10% mouse serum; 150 mM NaCl): 0.5 µg/mL (≈ 0.119 µM)

COc1cc(-c2oc3cc(O)cc(O)c3c(=O)c2O[C@@H]2O[C@H](CO[C@@H]3O[C@@H](C)[C@H](O)[C@@H](O)[C@H]3O)[C@@H](O)[C@H](O)[C@H]2O)cc(O)c1O
IC50 (rep main protease; enzyme activity, inhibitor; 63 min preincubation): 13.9 µM

CC(C)C[C@H](NC(=O)[C@H](CO[C@@H]1O[C@H](CO)[C@@H](O[C@@H]2O[C@H](CO)[C@H](O)[C@H](O)[C@H]2O)[C@H](O)[C@H]1O)NC(=O)[C@H](CCCCN)NC(=O)[C@H](CC(C)C)NC(=O)C(C)(C)NC(=O)[C@H](CCCCN)NC(=O)[C@H](CCC(=O)O)NC(=O)[C@H](C)NC(=O)[C@H](CC(C)C)NC(=O)[C@H](CC(N)=O)NC(=O)[C@@H]1CCCN1C(=O)[C@H](CC(C)C)NC(=O)[C@H](Cc1ccccc1)NC(=O)CNC(=O)[C@H](NC(=O)[C@@H](N)Cc1ccc(O)cc1)[C@H](C)O)C(N)=O
Ki (OPRD1; ligand displacement, radioligand; pH 7.5, cell membranes): 0.012 µM

Cc1ccc(C(=O)NCc2ccc(C)c(C(=O)N[C@H](C)c3cccc4ccccc34)c2)cc1Cl
IC50 (rep papain-like protease; enzyme activity, inhibitor): 29 µM

COc1ccc(/C=C/[N+](=O)[O-])cc1
IC50 (rep main protease; enzyme activity, inhibitor, FRET; with preincubation): 6.65 µM

N#Cc1ccccc1CC(N)C(=O)NC(Cc1ccc(Cl)cc1Cl)C(=O)NC(CC(=O)NCCCc1ccncc1)Cc1ccc(F)cc1 (stereo not drawn)
IC50 (rep main protease; enzyme activity, inhibitor, fluorescence): 0.05 µM

CC(c1ccccc1Cl)N(C)Cc1cc(O)ccc1Cl (stereo not drawn)
IC50 (rep papain-like protease; deISGylase activity, inhibitor; with: ISG15-AMC 0.5 µM): 12.5 ± 5.1 µM

CCc1cccc2c(C(=O)NC3CCN(C(=O)C(C)C)CC3)c[nH]c12
IC50 (rep main protease; enzyme activity, inhibitor, FRET): 4.64 µM

CC[C@H](C)[C@@H]([C@@H](CC(=O)N1CCC[C@H]1[C@H](OC)[C@@H](C)C(=O)N[C@H](C)[C@@H](O)c1ccccc1)OC)N(C)C(=O)[C@@H](NC(=O)[C@H](C(C)C)N(C)C(=O)OCc1ccc(NC(=O)[C@H](CCCNC(N)=O)NC(=O)[C@@H](NC(=O)CCCC(=O)NCCC(=O)N(C)CC(=O)N(C)CC(=O)N(C)CC(=O)N(C)CC(=O)N(C)CC(=O)N(C)CC(=O)N(C)CC(=O)N(C)CC(=O)N(C)CC(=O)N(C)CC(=O)N[C@H]2CSCCC(=O)N3CN4CN(C3)C(=O)CCSC[C@H](NC(=O)[C@@H](CC(=O)O)NC(=O)[C@H](Cc3cccc5ccccc35)NC(=O)[C@@H]3CCCN3C2=O)C(=O)N[C@@H](CCSC)C(=O)N[C@@H](CCCCNC(=N)N)C(=O)N[C@@H](CC(=O)O)C(=O)N[C@@H](Cc2c[nH]c3ccccc23)C(=O)N[C@@H](CO)C(=O)N[C@@H]([C@@H](C)O)C(=O)N2CCC[C@H]2C(=O)N2C[C@H](O)C[C@H]2C(=O)N[C@@H](Cc2c[nH]c3ccccc23)C(=O)N[C@H](C(N)=O)CSCCC4=O)C(C)C)cc1)C(C)C
solubility (aqueous buffer; pH 7.4): 800 µg/mL (≈ 192 µM)

CN(C)S(=O)(=O)c1ccc2nnn(OCc3cccc4ccccc34)c2c1
IC50 (rep main protease; enzyme activity, inhibitor): > 100 µM

CC(C)[C@H](NC(=O)c1ccccc1[Se][Se]c1ccccc1C(=O)N[C@H](C(=O)O)C(C)C)C(=O)O
IC50 (rep main protease; enzyme activity, inhibitor): 4.87 µM

CC(C)C[C@H](NC(=O)[C@H](CO)NC(=O)[C@H](CCCCN)NC(=O)[C@H](CC(C)C)NC(=O)C(C)(C)NC(=O)[C@H](CCCCN)NC(=O)[C@H](CCC(=O)O)NC(=O)C(C)(C)NC(=O)[C@H](CC(C)C)NC(=O)[C@H](CC(N)=O)NC(=O)[C@@H]1CCCN1C(=O)[C@H](CC(C)C)NC(=O)[C@H](Cc1ccccc1)NC(=O)CNC(=O)[C@H](NC(=O)[C@@H](N)Cc1ccc(O)cc1)[C@H](C)O)C(N)=O
Ki (OPRD1; ligand displacement, radioligand; pH 7.5, cell membranes): 0.023 µM

CC(C)CCCCCCCCCCCCc1cc(O)cc(O)c1
IC50 (rep main protease; enzyme activity, inhibitor; with preincubation): 13 µM

Cc1ccc(OCCN(C)C)cc1C(=O)N[C@H](C)c1cc(-c2cnn(C)c2)cc(-c2cnn(CCN3CCOCC3)c2)c1
IC50 (rep papain-like protease; enzyme activity, inhibitor, FRET): 0.0988 µM

CC(=O)N[C@@H](Cc1ccc(O)cc1)C(=O)N[C@@H](CC(=O)O)C(=O)NCCC(=O)N[C@@H](Cc1ccccc1)C(=O)N[C@@H](Cc1ccc(O)cc1)C(=O)NCCC(=O)N[C@@H](Cc1ccc(O)cc1)C(=O)N[C@H](C(=O)N[C@H](C(=O)N[C@@H](Cc1ccccc1)C(=O)N[C@@H](Cc1c[nH]cn1)C(=O)N[C@H](C(=O)N[C@@H](C)C(=O)N[C@H](C(N)=O)[C@@H](C)O)C(C)C)[C@@H](C)O)C(C)C
IC50 (rep main protease; enzyme activity, inhibitor): 0.77 µM

O=C(/C=C/c1ccc(O)c2oc(-c3ccc(O)c(O)c3)cc12)O[C@H](Cc1ccc(O)c(O)c1)C(=O)O
IC50 (rep papain-like protease; enzyme activity, inhibitor, fluorescence): < 100 µM

Oc1ccccc1/C=N/NC(=S)Nc1ccc(Cl)cc1
IC50 (rep main protease; enzyme activity, inhibitor, FRET): 32.9 µM

COC(=O)C1CCCN1C(=O)CC(O)C(N)Cc1ccccc1 (stereo not drawn)
IC50 (rep papain-like protease; enzyme activity, inhibitor, FRET): 0.85 µM

C=CC(=O)N1CCN(c2cc(-c3ccc(C4CCC4)cc3)ncc2C(=O)N[C@H](Cc2ccccc2)C(=O)NC)C(C)C1 (stereo partly drawn)
IC50 (rep main protease): > 100 µM

For quick reference, copied from above:
CC[C@H](C)[C@H](NC(=O)[C@H](CCCCN)NC(=O)[C@H](CCCCN)NC(=O)[C@H](CC(C)C)NC(=O)[C@H](Cc1c[nH]c2ccccc12)NC(=O)CN)C(=O)NCC(=O)N[C@@H](CCCCN)C(=O)N[C@@H](CCCCN)C(=O)N[C@H](C(=O)N[C@@H](CCC(=O)O)C(=O)N[C@@H](CCCNC(=N)N)C(=O)N[C@H](C(=O)NCC(=O)N[C@@H](CCC(N)=O)C(=O)N[C@@H](Cc1c[nH]cn1)C(=O)N[C@H](C(=O)N[C@@H](CCCNC(=N)N)C(=O)N[C@@H](CC(=O)O)C(=O)N[C@@H](C)C(=O)N[C@H](C(=O)N[C@H](C(=O)N[C@@H](CCC(N)=O)C(=O)N[C@H](C(=O)N[C@H](C(=O)NCC(=O)N[C@H](C(=O)N[C@@H](C)C(=O)N[C@@H](CCC(N)=O)C(=O)N[C@@H](CCC(N)=O)C(=O)N[C@@H](C)C(=O)N[C@@H](C)C(=O)N[C@@H](CC(N)=O)C(=O)N[C@H](C(=O)N[C@@H](C)C(=O)N[C@@H](C)C(=O)N[C@H](C(=O)N[C@@H](CC(C)C)C(=O)N[C@@H](CCCCN)C(N)=O)[C@@H](C)O)C(C)C)C(C)C)[C@@H](C)CC)[C@@H](C)O)[C@@H](C)CC)[C@@H](C)O)[C@@H](C)O)C(C)C)[C@@H](C)CC
MIC (Acinetobacter baumannii; broth microdilution; RKI 19/09, CAMHB with 10% mouse serum; 150 mM NaCl): 0.5 µg/mL (≈ 0.119 µM)

COc1cc(-c2oc3cc(O)cc(O)c3c(=O)c2O[C@@H]2O[C@H](CO[C@@H]3O[C@@H](C)[C@H](O)[C@@H](O)[C@H]3O)[C@@H](O)[C@H](O)[C@H]2O)cc(O)c1O
IC50 (rep main protease; enzyme activity, inhibitor; 63 min preincubation): 13.9 µM

CC(C)C[C@H](NC(=O)[C@H](CO[C@@H]1O[C@H](CO)[C@@H](O[C@@H]2O[C@H](CO)[C@H](O)[C@H](O)[C@H]2O)[C@H](O)[C@H]1O)NC(=O)[C@H](CCCCN)NC(=O)[C@H](CC(C)C)NC(=O)C(C)(C)NC(=O)[C@H](CCCCN)NC(=O)[C@H](CCC(=O)O)NC(=O)[C@H](C)NC(=O)[C@H](CC(C)C)NC(=O)[C@H](CC(N)=O)NC(=O)[C@@H]1CCCN1C(=O)[C@H](CC(C)C)NC(=O)[C@H](Cc1ccccc1)NC(=O)CNC(=O)[C@H](NC(=O)[C@@H](N)Cc1ccc(O)cc1)[C@H](C)O)C(N)=O
Ki (OPRD1; ligand displacement, radioligand; pH 7.5, cell membranes): 0.012 µM
